Results from different studies.
± gives the spread as reported. Ends that are not written are not given here.
B1: neurofilament light chain; sequence looked up; chain SSFSYEPYYSTSYKRRYVETPRVHISSVRSGYSTARSAYSSYSAPVSSSLSVRRSYSSSSGSLMPSLENLDLSQVAAISNDLKSIRTQEKAQLQDLNDRFASFIERVHELEQQNKVLEAELLVLRQKHSEPSRFRALYEQEIRDLRLAAEDATNEKQALQGEREGLEETLRNLQARYEEEVLSREDAEGRLMEARKGADEAALARAELEKRIDSLMDEISFLKKVHEEEIAELQAQIQYAQISVEMDVTKPDLSAALKDIRAQYEKLAAKNMQNAEEWFKSRFTVLTESAAKNTDAVRAAKDEVSESRRLLKAKTLEIEACRGMNEALEKQLQELEDKQNADISAMQDTINKLENELRTTKSEMARYLKEYQDLLNVKMALDIEIAAYRKLLEGEETRLSFTSVGSITSGYSQSSQVFGRSAYGGLQTSSYLMSTRSFPSYYTSHVQEEQIEVEETIEAAKAEEAKDEPPSEGEAEEEEKDKEEAEEEEAAEEEEAAKEESEEAKEEEEGGEGEEGEETKEAEEEEKKVEGAGEEQAAKKKD
B2: chain SAGSPTPGTSESATPESGPGSEPATSGSETPGTSESATPESGPGSEPATSGSETPGTSESATPESGPGTSTEPSEGSAPGTSESATPESGPGSPAGSPTSTEEGSPAGSPTSTEEGSPAGSPTSTEEGTSESATPESGPGTSTEPSEGSAPGTSESATPESGPGSEPATSGSETPGTSESATPESGPGSEPATSGSETPGTSESATPESGPGTSTEPSEGSAPGSPAGSPTSTEEGTSESATPESGPGSEPATSGSETPGTSESATPESGPGSPAGSPTSTEEGSPAGSPTSTEEGTSTEPSEGSAPGTSESATPESGPGTSESATPESGPGTSESATPESGPGSEPATSGSETPGSEPATSGSETPGSPAGSPTSTEEGTSTEPSEGSAPGTSTEPSEGSAPGSEPATSGSETPTAEAAGCGTAEAASASR
Chain of UniProt O60656 (whole entry, looked up): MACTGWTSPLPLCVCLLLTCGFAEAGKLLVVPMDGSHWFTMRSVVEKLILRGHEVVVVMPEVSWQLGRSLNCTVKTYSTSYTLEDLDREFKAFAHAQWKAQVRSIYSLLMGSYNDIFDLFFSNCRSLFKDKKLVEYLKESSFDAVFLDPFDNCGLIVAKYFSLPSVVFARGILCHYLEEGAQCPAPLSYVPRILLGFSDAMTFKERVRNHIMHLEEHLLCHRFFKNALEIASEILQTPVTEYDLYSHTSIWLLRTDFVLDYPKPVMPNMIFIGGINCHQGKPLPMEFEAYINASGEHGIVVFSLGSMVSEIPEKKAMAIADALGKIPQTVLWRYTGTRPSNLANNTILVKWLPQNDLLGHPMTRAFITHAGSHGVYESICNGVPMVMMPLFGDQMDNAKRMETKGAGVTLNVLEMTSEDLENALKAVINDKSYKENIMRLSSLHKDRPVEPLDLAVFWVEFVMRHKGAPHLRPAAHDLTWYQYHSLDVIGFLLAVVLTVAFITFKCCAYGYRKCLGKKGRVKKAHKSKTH

B1 (neurofilament light chain) — stability (human EDTA whole blood; 24 h, room temperature, delayed centrifugation): stable
UGT1A9 (Homo sapiens, UniProt O60656) — Vmax/Km (O=c1c(O)c(-c2cccc(O)c2)oc2cc(O)ccc12; steady-state kinetics; pH 7.4, 37 °C): 227 µL/min/mg
CSCC[C@H](NC(=O)[C@H](CC(C)C)NC(=O)[C@H](Cc1c[nH]cn1)NC(=O)CNC(=O)[C@@H](NC(=O)[C@H](C)NC(=O)[C@H](Cc1c[nH]c2ccccc12)NC(=O)[C@H](CCC(N)=O)NC(=O)CCCCCNC(=O)[C@H](CCC(=O)NCCCC[C@@H]1NC(=O)[C@@H](Cc2ccc(O)cc2)NC(=O)[C@H](CC(=O)O)NC(=O)CNC(=O)[C@H](CCCNC(=N)N)NC1=O)NC(=O)CN1CCN(CC(=O)O)CCN(CC(=O)O)CC1)C(C)C)C(N)=O [copper-64 labelled] — tissue uptake (ICR SCID mouse, female, stomach; intravenous, 750 kBq, 24 h): 0.34 ± 0.12 %ID/g
CC(C)[C@H](NC(=O)[C@@H]1CCCN1C(=O)[C@H](CCCNC(=N)N)NC(=O)[C@H](CS)NC(=O)[C@H](Cc1c[nH]c2ccccc12)NC(=O)[C@H](CCCNC(=N)N)NC(=O)[C@@H](Cc1ccccc1)NC(=O)[C@H](Cc1c[nH]cn1)NC(=O)[C@H](CCC(=O)O)NC(=O)[C@H](CS)NC(=O)[C@H](CS)NC(=O)[C@H](CCCCN)NC(=O)[C@@H]1CC(=O)N[C@@H](CCCNC(=N)N)C(=O)N[C@@H](C)C(=O)N[C@@H](CC(=O)O)C(=O)N[C@H](Cc2ccc(O)cc2)C(=O)N1)C(N)=O [technetium-99m labelled] — tissue uptake (C57 mice, heart; intravenous, 0.037 MBq, 0.5 h): 2.12 ± 0.46 %ID/g
insulin degludec — Cmax ratio (ELISA; human severe renal impairment, serum; dose not given, single dose; baseline: impaired over normal renal function): 1.23
B2 — retention time (C4 reversed-phase HPLC; longer = more hydrophobic): 20.2 min
KCNTATCATQRLANFLVHSSNNFGPILPPTNVGSNTY (Pramlintide; not fully specified (C-terminus, bridges); cysteine pairing not given here; sequence looked up) — adverse event incidence (refers to: Hypersensitivity; peptide, obese or overweight humans; concentration not given, ITT population): 0%
insulin glulisine — AUC(0-6 h) (obese type 2 diabetes patients, serum; subcutaneous, 0.2 U/kg, geometric mean): 2 nM·h
insulin aspart — Cmax ratio (human, healthy; subcutaneous, 0.2 U/kg; baseline: reference insulin aspart (EU)): 99.9%
COc1cccc2c1C(=O)c1c(O)c3c(c(O)c1C2=O)C[C@@](O)(C(=O)CO)C[C@@H]3O[C@H]1C[C@H](NC(=O)[C@@H]2CCCN2C(=O)CNC(=O)[C@@H](N)CC(C)C)[C@H](O)[C@H](C)O1 — Cmax (mouse, E0771 tumour-bearing, kidney; intravenous, 92 µmol/kg PhAc-ALGP-Dox): 5.6 µM
insulin glulisine — time to 50% exposure (refers to: insulin; healthy volunteers, serum; subcutaneous, 0.15 U/kg): 124 ± 27 min
teriparatide — AUC(0-inf) (ELISA; healthy women; sc, 20 µg single dose, reference product, geometric mean): 0.103 ng·h/mL
CC1=C(I)C(C)=[N+]2C1=C(c1ccc(OCCn3cc(CNC(=O)CSC[C@H](NC(=O)c4ccc(-c5nnc(C)c6c5CCC(O)CCC6)cc4)C(=O)N[C@H](CCCNC(=N)N)C(=O)N[C@@H](CC4CCCCC4)C(=O)N[C@H](CCCNC(=N)N)C(=O)N[C@@H](CC4CCCCC4)C(=O)N[C@H](CCCNC(=N)N)C(=O)N[C@@H](CC4CCCCC4)C(=O)N[C@H](CCCNC(=N)N)C(N)=O)nn3)cc1)c1c(C)c(I)c(C)n1[B-]2(F)F (some centres unmarked) — singlet oxygen quantum yield (1 µM, with: DPBF, 525 nm light; baseline: rose bengal, erythrosine B): 0.59
insulin lispro — hexamer fraction (sedimentation velocity AUC; insulin diluent; 500 µg/mL, pH 7.4): ~84%
insulin aspart — AUC(0-6 h) (obese type 2 diabetes patients, serum; subcutaneous, 0.2 U/kg, geometric mean): 1.29 nM·h
rnpA F107W (Bacillus subtilis) — pKa (NMR, refers to: His105; 25 °C, 1.00 M NaCl, folded, sulfate-bound, numbering of the source, with: sulfate 20 mM): 5.73
COc1cccc2c1C(=O)c1c(O)c3c(c(O)c1C2=O)C[C@@](O)(C(=O)CO)C[C@@H]3O[C@H]1C[C@H](NC(=O)[C@@H]2CCCN2C(=O)CN)[C@H](O)[C@H](C)O1 — Cmax (mouse, E0771 tumour-bearing, liver; intravenous, 92 µmol/kg PhAc-ALGP-Dox): 5.3 µM

Excerpt of the above:
insulin glulisine — time to 50% exposure (refers to: insulin; healthy volunteers, serum; subcutaneous, 0.15 U/kg): 124 ± 27 min
